# Results from different studies.
# Parts stem from different laboratories: compare values within a part only.

# Block 1 — technique: RNA Bind-n-Seq; form: RNA; medium: in vitro; concentration: 200 nM; notes: whole 134-nt RNA, ends assumed; added: 150 mM KCl; baseline: input library; direction: higher = stronger binding
# Target: Ras GTPase-activating protein-binding protein 1, full length (G3BP1, Homo sapiens, UniProt Q13283)
# UniProt Q13283, sequence (whole entry, looked up): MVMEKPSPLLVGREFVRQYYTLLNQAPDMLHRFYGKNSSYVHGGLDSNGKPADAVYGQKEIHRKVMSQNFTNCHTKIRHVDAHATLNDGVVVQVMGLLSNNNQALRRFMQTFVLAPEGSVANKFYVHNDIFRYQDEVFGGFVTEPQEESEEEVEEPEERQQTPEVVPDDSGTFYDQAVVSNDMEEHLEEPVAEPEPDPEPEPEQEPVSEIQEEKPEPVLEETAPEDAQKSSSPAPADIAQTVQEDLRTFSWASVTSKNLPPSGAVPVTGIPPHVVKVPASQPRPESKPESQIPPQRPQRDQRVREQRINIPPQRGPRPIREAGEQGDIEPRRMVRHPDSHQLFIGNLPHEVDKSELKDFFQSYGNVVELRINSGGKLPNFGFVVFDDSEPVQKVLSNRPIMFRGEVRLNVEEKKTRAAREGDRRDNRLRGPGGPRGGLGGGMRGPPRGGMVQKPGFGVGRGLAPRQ
# Shared flanks, not repeated: GGGAGUUCUACAGUCCGACGAUC … UGGAAUUCUCGGGUGUCAAGG
Strand,log2 enrichment
CCUCAAGUCCUGUGCUACACAUCGUAUGUACCGAAUCGGUUUGGAAAGGAGGAAAGUAUUAUGUUACGCCGUUCGGAUCUGCACUUCCAG,0.0354
CCUCAAGUCCUGUGCUACACAUCGUAUGUACCGAAUCGGUGGGGUGGUGGGGAAAGUAUUAUGUUACGCCGUUCGGAUCUGCACUUCCAG,0.42
UUCUCUCUCUCCCUUUGCAGCCGCUGUACAACCAGCCCUCCGACACCCGGCAGUAUCAUGAGAACAUCAAAAUGUGAGUGCUCGCGGGCA,0.472
AGUCCUGUGCUACACAUCGUAUGUACCGAAUCGGGGUUUUUGGGGAGGGGAAAGGGGAAAGUAUUAUGUUACGCCGUUCGGAUCUGCACU,0.359
AGUCCUGUGCUACACAUCGUAUGUACCGAAUCGGGUGGGUUUUUUUGGGAAAAAGGGAAAGUAUUAUGUUACGCCGUUCGGAUCUGCACU,-0.18
CCUGUGCUACACAUCGUAUGUACCGAAUCGGGGUUUUUUUGGGGUUUUUGGGGAAAGGGGAAAGUAUUAUGUUACGCCGUUCGGAUCUGC,0.207
GUAAGUGUGGCAAUGUGAACUGAAGCUGAUGGGCUGAGAACAUGGACUGAGCUUGUGGUGUGCUUUGCAGGAGGACUUGAAGCAGAGUUC,1.05
UCCUGUGCUACACAUCGUAUGUACCGAAUCGGUUUUUUUGGUUUUUUUGGGUUUUUUUGGAAAGUAUUAUGUUACGCCGUUCGGAUCUGC,-0.369
UCAAGUCCUGUGCUACACAUCGUAUGUACCGAAUCGGAGGAAAAAAAGGUUUGGAAAGUAUUAUGUUACGCCGUUCGGAUCUGCACUUCC,-1.22
UCAAGUCCUGUGCUACACAUCGUAUGUACCGAAUCGGGUUUGGGUUUGGUUUGGGAAAGUAUUAUGUUACGCCGUUCGGAUCUGCACUUC,-0.512
CCUCAAGUCCUGUGCUACACAUCGUAUGUACCGAAUCGGUUUUUGGAGGAGGAAAGUAUUAUGUUACGCCGUUCGGAUCUGCACUUCCAG,-0.012
CUGUGCUACACAUCGUAUGUACCGAAUCGGGGUUUUUUUGGGGUUUUUUUGGUUUUUUUGGAAAGUAUUAUGUUACGCCGUUCGGAUCUG,-0.787
CAAGUCCUGUGCUACACAUCGUAUGUACCGAAUCGGGUUUUUGGGUUUGGGAGGGAAAGUAUUAUGUUACGCCGUUCGGAUCUGCACUUC,0.403
GUCCUGUGCUACACAUCGUAUGUACCGAAUCGGGAAAAAGGGGAAAAAGGGAAAAAGGAAAGUAUUAUGUUACGCCGUUCGGAUCUGCAC,-0.56

# Block 2 — technique: protein-binding microarray; form: double-stranded DNA, one strand shown; medium: in vitro; concentration: 2540 nM top; notes: 60-bp whole probe; added: salmon DNA 0.4 mg/ml; baseline: random background probes; direction: higher = stronger binding; shared flanks, not repeated: GCCTAGCAC … GTCTTGATTCGCTTGACGCTGCTG
# Target: Interferon regulatory factor 3, full length, phosphomimetic (IRF3, Homo sapiens, UniProt Q14653, residues 1-427, S386D/S396D/S398D/S402D/T404D/S405D)
# Residues (chain): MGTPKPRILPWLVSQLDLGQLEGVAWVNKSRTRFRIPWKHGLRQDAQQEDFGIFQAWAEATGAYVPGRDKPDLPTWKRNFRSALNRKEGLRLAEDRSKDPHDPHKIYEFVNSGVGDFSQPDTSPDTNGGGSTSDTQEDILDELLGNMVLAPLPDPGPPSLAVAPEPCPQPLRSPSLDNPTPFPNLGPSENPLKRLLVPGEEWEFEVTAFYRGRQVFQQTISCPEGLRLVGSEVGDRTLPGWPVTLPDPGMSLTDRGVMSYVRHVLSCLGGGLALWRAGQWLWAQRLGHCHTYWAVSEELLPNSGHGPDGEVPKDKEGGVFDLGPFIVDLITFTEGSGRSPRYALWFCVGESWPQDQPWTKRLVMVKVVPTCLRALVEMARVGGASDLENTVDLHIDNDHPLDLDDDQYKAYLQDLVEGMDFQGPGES
Strand,fitted relative affinity [z-score]
TGCCCTCTCCATACTTCCCAGTGCTAG,0.657
TCAGCTTCCCAATTCTCACTGTGCTAG,1.95
TTAGGACTGGAAACTGGGTTAGTGCTA,-0.106
CTTTAGAGCAAGAACAGCCTGTGCTAG,-0.256
GACGGTTTAGGACTGGGGACGTGCTAG,0.415
GGCGGACTGGGACTGGGGACGTGCTAG,-1.13
GACGGACTGCTTATCCAGACGTGCTAG,-0.317
TCATTTTTGGTTTCTGGACTGTGCTAG,4
TTACGACTGCTTCTCCTTTAGTGCTAG,0.00892
CCGAGAAACAGTAACCCTCTGTGCTAG,-0.353
GACGATTCCCTTTTCCTGACGTGCTAG,3.77
TTAGAACTGGGGTATGGATTAGTGCTA,-0.673
TATTTTCCTTTAAACTTTTAGTGCTAG,5.14
AACGGTTCCCTTTTCCTGACGTGCTAG,6.02
TTAGGATTGGGGACTGGGTTAGTGCTA,-0.967
GTGAGTCCCGAGAATGGTGTGGTGCTA,-1.23
GACGGACTGCTTATCCTAACGTGCTAG,0.0422
TACGATTTCGGGTTTCGAGACGTGCTA,2.43
GACGGTTGCGGTTCCGGGACGTGCTAG,5.34
TTAGGTATCGGGTATGGGTTAGTGCTA,1.02
TTCTTTACCACATTCTCTGCGTGCTAG,1.57
GACGGACTGCTTATCATGACGTGCTAG,-0.318

# Block 3 — technique: RNAcompete; form: RNA; medium: in vitro; concentration: 20 nM; notes: 7-mer, probes averaged, single round; baseline: mean of 7-mers; direction: higher = stronger binding
# Target: PABPC1L2, full length, GST fusion (mouse, UniProt A0ABA7IW68)
# Target sequence (chain): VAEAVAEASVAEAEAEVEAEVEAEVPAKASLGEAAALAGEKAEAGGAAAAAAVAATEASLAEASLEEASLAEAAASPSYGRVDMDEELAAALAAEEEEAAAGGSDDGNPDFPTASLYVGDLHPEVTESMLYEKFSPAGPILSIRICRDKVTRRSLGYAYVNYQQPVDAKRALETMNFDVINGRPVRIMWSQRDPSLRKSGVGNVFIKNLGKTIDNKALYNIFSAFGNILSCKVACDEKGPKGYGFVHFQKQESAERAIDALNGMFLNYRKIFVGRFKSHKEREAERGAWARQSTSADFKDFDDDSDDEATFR
Strand,7-mer Z-score
AGAGCCA,-0.103
CUAUGGU,0.0406
GUCAGCA,-0.157
UUUGGUA,-0.18
AUAGUGC,-0.155
CUGCCAA,-0.128
UGUACGA,-0.175
UGGAGAU,0.0442
GAACUAA,0.244
GUGUAUG,-0.162
GCGCUUC,-0.226
UGGACGU,-0.0681
GACAUGU,-0.0935
GAACCUA,-0.0881
GAGCAAG,-0.0138
GCUUCGA,-0.19
GGUACCA,0.0134
AACAUGC,0.454
ACAACGA,0.274
GGGGUGC,0.263
AUCCGAC,-0.267
AACCUGG,0.00798
AACAGCA,0.615
AUUAGCG,-0.05
CAUCCCA,-0.391

# Block 4 — technique: RNA Bind-n-Seq; form: RNA; medium: in vitro; concentration: 365 nM; baseline: no-protein control; direction: higher = stronger binding
# Target: RNA binding protein fox-1 homolog 2, RRM domain, GST-SBP tag (RBFOX2, Homo sapiens, UniProt O43251-10, residues 100-194)
# Notes: natural RNA segment, single round, ends assumed
# Shared flanks, not repeated: GGGAGUUCUACAGUCCGACGAUC … UGGAAUUCUCGGGUGCCAA
# Target sequence (chain): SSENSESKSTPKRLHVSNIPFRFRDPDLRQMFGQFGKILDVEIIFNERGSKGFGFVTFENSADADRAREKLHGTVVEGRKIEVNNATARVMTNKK
Strand,RBNS enrichment (R)
GGCGAUGUGUUAUAGACGGUGCUCACUCCCAAGGGACAGCAAGUGAGCAGAGAUGUACUGCAAAGUCGCCAGUCACUGCUGCAAGGUGGCCUCUGCCUGGGGCCUCCAGA,0.307
ACAAACCAGCUGCCAGCUUCUGGCUGCAAAACUGCCUGGUGAAAUUGACUUGCUUGGUUUCAUUCACCAAACCAACCCAAGUCGUGUCAUUCUUGCCUAUUAACAUCUGA,0.305
AUUUAAUAAGCAAUCCGGAUCUCAGAGAACAUAGUAAUACUGUCUAGUUUAAAGCCUGCAGUAAAGGUACUCAGAUUUAUGGCUUUCAUGACUAACACUAAACACAUCAG,0.545
GAGACGGGAGGGUGGAGUGAGACCCUCUGCGCUGAGUCCUCAGGGCUGUCUUGGAGGUAAGUGGAAGUAGUGGGCCCUGCUUCUUUUCUUUGUAGCCUUCCGGCUACAUC,0.416
CCUCUUUACCUCGCCCACGCGGACACACGCCUCCUGUAGUCGCUUUGCCUAUUGAUGUUCCUUUGGGUCUGUGAGGUUCUGUAAACUGUGCUAGUGCUGACGAUGUUCUG,0.733
UGUAUGUCUCUCUCUACACUGUGGUGCACUUAACUUGUGGAAUUUUUAUACUAAAAAUGUAGAAUAAAGACUAUUUUGAAGAUUUGAAUAAAGUGAUGAAGUUGCAUUAC,0.373
GCCUGCUGCCAUACUGUAUGUAGGAAAGUGUUCUGUGGCUGCUUUGUGUCAAGAAAAGAGCAGUCACUCUCAGAAUCUUGAUUCCCCAUCAGCCAAAGCAAAAGAUGGCU,0.444
UUCUGGCUUUUCUGAGGGCUAGGGCAUGGUGCCCACCUCUCAAGUAUAAGAAACUGCAUCCUGCCUCCAGCCCCCUUGGGGCAGGGAUUGGCUUGGAACAGAGGUUGGCC,0.279
AUUCAGGAAUUGCAGAGAAAUGCAUUUUCACAGAAAUCAAGAUGUUAUUUUUGUAUACUAUAUCACUUAGACAACUGUGUUUCAUUUGCUGUAAUCAGUUUUUAAAAGUC,0.372
GUUUUGUUCUCUUUGUUGGUUGUUUUUCCUUAAUCUUUCUCCUUUCUAUCUGAUUUAAGCAAAAGAGAAAAAAAUAUCUGAAAGCUGUCUUAAAGAGAGAGAGAGAGAGA,0.387
AUGGGGUGUCCUGGCCCUUAGUGACACAGCUCCUCUCUGGGGCACCCUAUCUGCUUGUCUCGUCCAGGAAGCGUUAGGGCUGAUGGGUGACUCAGCAAGGCAGUGUCAGA,0.337
UUGUAUUUUAAAAUGAUGUAGUAUUCAACUUGUGAAGGGAUUUGUUUUGUCAAAAAAAAAAAAAAAUUAAAACUCAAUGUGUAUCAGCCCACAGAAGGGCAGGGGUCUGC,1.27

# Some of these lines once more (block 1):
Strand,log2 enrichment
CCUCAAGUCCUGUGCUACACAUCGUAUGUACCGAAUCGGUUUGGAAAGGAGGAAAGUAUUAUGUUACGCCGUUCGGAUCUGCACUUCCAG,0.0354
CCUCAAGUCCUGUGCUACACAUCGUAUGUACCGAAUCGGUGGGGUGGUGGGGAAAGUAUUAUGUUACGCCGUUCGGAUCUGCACUUCCAG,0.42
UUCUCUCUCUCCCUUUGCAGCCGCUGUACAACCAGCCCUCCGACACCCGGCAGUAUCAUGAGAACAUCAAAAUGUGAGUGCUCGCGGGCA,0.472
AGUCCUGUGCUACACAUCGUAUGUACCGAAUCGGGGUUUUUGGGGAGGGGAAAGGGGAAAGUAUUAUGUUACGCCGUUCGGAUCUGCACU,0.359
AGUCCUGUGCUACACAUCGUAUGUACCGAAUCGGGUGGGUUUUUUUGGGAAAAAGGGAAAGUAUUAUGUUACGCCGUUCGGAUCUGCACU,-0.18
CCUGUGCUACACAUCGUAUGUACCGAAUCGGGGUUUUUUUGGGGUUUUUGGGGAAAGGGGAAAGUAUUAUGUUACGCCGUUCGGAUCUGC,0.207
GUAAGUGUGGCAAUGUGAACUGAAGCUGAUGGGCUGAGAACAUGGACUGAGCUUGUGGUGUGCUUUGCAGGAGGACUUGAAGCAGAGUUC,1.05
UCCUGUGCUACACAUCGUAUGUACCGAAUCGGUUUUUUUGGUUUUUUUGGGUUUUUUUGGAAAGUAUUAUGUUACGCCGUUCGGAUCUGC,-0.369
UCAAGUCCUGUGCUACACAUCGUAUGUACCGAAUCGGAGGAAAAAAAGGUUUGGAAAGUAUUAUGUUACGCCGUUCGGAUCUGCACUUCC,-1.22
UCAAGUCCUGUGCUACACAUCGUAUGUACCGAAUCGGGUUUGGGUUUGGUUUGGGAAAGUAUUAUGUUACGCCGUUCGGAUCUGCACUUC,-0.512
